Measured values of several laboratories.
Every numbered part comes from another study and shows a few of its results, in no order.

Block 1
Target: Interferon regulatory factor 7, full length, phosphomimetic (IRF7, Homo sapiens, UniProt Q92985, residues 1-503, S471D/S472D/S475D/S476D/S477D/S483D/S484D/S487D)
Chain of UniProt Q92985 (whole entry, unmodified, looked up): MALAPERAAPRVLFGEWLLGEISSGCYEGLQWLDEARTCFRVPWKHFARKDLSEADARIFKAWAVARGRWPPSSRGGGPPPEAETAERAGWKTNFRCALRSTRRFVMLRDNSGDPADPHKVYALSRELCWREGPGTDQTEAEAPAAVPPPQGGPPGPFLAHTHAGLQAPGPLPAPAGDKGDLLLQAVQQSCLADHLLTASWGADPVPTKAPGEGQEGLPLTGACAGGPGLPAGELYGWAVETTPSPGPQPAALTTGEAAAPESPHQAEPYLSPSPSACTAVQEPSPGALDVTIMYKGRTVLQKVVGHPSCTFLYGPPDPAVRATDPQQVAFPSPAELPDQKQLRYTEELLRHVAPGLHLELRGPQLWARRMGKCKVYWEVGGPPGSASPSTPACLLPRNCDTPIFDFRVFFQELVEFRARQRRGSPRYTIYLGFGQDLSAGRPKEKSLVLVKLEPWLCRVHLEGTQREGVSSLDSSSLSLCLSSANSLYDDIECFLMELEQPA
Method: protein-binding microarray
Molecule type: double-stranded DNA, one strand shown
Medium: in vitro
Concentration: 2200 nM top
Setting: 60-bp whole probe
Added: salmon DNA 0.4 mg/ml
Baseline: random background probes
Reading: higher = stronger binding
Sequence	fitted relative affinity [z-score]
GCCTAGCACTTAGGTATCCCTTTCCTTTAGTGCTAGGTCTTGATTCGCTTGACGCTGCTG	2.01
GCCTAGCACTCACTTTCCCCTTCCTAACTGTGCTAGGTCTTGATTCGCTTGACGCTGCTG	7.89
GCCTAGCACTTAGATATCGAGACTGGATTAGTGCTAGTCTTGATTCGCTTGACGCTGCTG	-0.52

Block 2
Target: Phosphate system positive regulatory protein PHO4, full length, GST-tagged (PHO4, Saccharomyces cerevisiae, UniProt P07270, residues 1-312)
Method: competition protein-binding microarray
Molecule type: double-stranded DNA, one strand shown
Medium: in vitro
Concentration: 2 µM
Setting: whole 60-bp probe, lowest competitor level
Added: Cbf1 competitor, 0.05 µM
Reading: higher = stronger binding
Construct (chain): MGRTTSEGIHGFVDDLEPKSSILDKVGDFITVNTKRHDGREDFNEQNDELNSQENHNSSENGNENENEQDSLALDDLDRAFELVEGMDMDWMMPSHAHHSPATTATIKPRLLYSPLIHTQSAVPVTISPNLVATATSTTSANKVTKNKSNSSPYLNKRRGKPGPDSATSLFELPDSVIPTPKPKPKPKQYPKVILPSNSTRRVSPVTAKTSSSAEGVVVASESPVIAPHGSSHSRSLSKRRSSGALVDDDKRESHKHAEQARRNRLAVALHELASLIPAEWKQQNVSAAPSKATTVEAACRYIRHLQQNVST
Sequence	fluorescence intensity [a.u.]
GTCTTGTCTCATTTTCACGTGTGATTCCCCACTTCAGTCTTGATTCGCTTGACGCTGCTG	10600
ATCGTTTATAGTGGGCATGTGGCTGGTTGAACAATGGTCTTGATTCGCTTGACGCTGCTG	13800
AGTTAAAACCAGATATGCGTGGGACATAGTAGGGTGGTCTTGATTCGCTTGACGCTGCTG	9560

Block 3
Target: Prothrombin, mature alpha-thrombin (F2, Homo sapiens, UniProt P00734)
Method: aptamer microarray, sandwich
Molecule type: DNA with 2'F-ANA
Medium: in vitro
Concentration: 200 nM
Setting: whole 15-mer aptamer, many near background
Added: Cy3 exosite-II aptamer, 400 nM
Reading: higher = stronger binding
Sequence	mean fluorescence intensity [a.u.]
GGTTGGTGTGGTTGG (2'F-ANA at 1 2 3 4 6 8 9 11 14 15)	71.5
GGTTGGTGTGGTTGG (2'F-ANA at 2 9 11 13)	350
GGTTGGTGTGGTTGG (2'F-ANA at 2 3 4 5 8 9 12 14 15)	58.6

Further values, each from its own experiment
Molecule	target	assay	system	conditions	how to read	quantity	result
PhoQ, residues 284 288 289 292 302 303 TLMATV	PhoP, residues 12 14 15 18 19 FWNTL (Escherichia coli, UniProt P23836)	Sort-seq, item: YFP reporter	E. coli	PhoQ-PhoP variant library, added: 10 µM Mg2+	baseline: high Mg2+ state, higher = stronger signaling	fold induction	13.8

For quick reference, copied from above (block 3):
Sequence	mean fluorescence intensity [a.u.]
GGTTGGTGTGGTTGG (2'F-ANA at 2 3 4 5 8 9 12 14 15)	58.6
